Published values collected from several papers.
Every numbered part comes from another study and shows a few of its results, in no order. Changes are numbered by the printed parent chain.

Block 1
Target: CCNA2, cyclin fold, Cln2 fusion (human)
Technique: yeast growth competition, sequencing
Matrix: yeast
Notes: strong parent motif
Reference: not given
Direction: higher = stronger binding
Parent: CDAN1 docking peptide (human); RGARSQLFPPTEA
| Substitution | normalised enrichment score |
| --- | --- |
| F8A | 0.321 |
| L7A | 0.303 |
| E12A | 2.14 |
| R1A | 1.28 |
| P9A | 1.15 |

Block 2
Target: CREB5, bZIP domain (human)
Technique: DHFR protein complementation
Matrix: yeast
Notes: single substitutions, most at no-binding floor
Reference: wild-type JUN-FOS pair
Direction: higher = stronger binding
Parent: JUN, bZIP domain (human); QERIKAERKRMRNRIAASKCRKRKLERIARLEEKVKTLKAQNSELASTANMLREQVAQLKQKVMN; partner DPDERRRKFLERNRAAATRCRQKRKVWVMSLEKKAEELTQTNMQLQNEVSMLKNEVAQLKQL
| Substitution | binding fitness [natural log] |
| --- | --- |
| L45D | -1.27 |
| L31R | -1.35 |
| L59D | -1.29 |
| E33C | -0.584 |
| T48E | -0.259 |
| A29L | -0.512 |
| E33A | -0.33 |
| L38H | -1.2 |
| L52R | -1.3 |
| A49F | -1.33 |
| Q58H | -0.367 |
| R53Y | -1.25 |

Block 3
Target: Ras GTPase-activating protein-binding protein 1, full length (G3BP1, Homo sapiens, UniProt Q13283)
Chain of UniProt Q13283 (whole entry, looked up): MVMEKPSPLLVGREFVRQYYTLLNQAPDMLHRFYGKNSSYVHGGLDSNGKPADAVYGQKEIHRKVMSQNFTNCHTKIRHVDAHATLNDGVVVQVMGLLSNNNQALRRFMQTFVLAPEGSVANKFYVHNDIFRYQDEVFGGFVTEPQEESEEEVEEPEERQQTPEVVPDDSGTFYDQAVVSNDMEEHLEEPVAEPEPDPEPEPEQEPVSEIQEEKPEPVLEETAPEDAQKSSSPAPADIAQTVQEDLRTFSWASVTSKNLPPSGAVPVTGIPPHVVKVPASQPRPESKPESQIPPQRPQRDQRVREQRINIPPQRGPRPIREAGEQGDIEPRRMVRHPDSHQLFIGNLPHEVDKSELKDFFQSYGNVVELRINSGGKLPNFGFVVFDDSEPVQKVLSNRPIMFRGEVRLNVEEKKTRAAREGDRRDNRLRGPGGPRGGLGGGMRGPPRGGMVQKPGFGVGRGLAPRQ
Technique: RNA Bind-n-Seq
Form: RNA
Matrix: in vitro
Concentration: 200 nM
Notes: whole 134-nt RNA, ends assumed
With: 150 mM LiCl
Reference: input library
Direction: higher = stronger binding
Each molecule: 7-deaza-guanosine replaces G
Constant ends, left off below: GGGAGUUCUACAGUCCGACGAUC … UGGAAUUCUCGGGUGUCAAGG
| Oligonucleotide | log2 enrichment |
| --- | --- |
| UGGGAGGUGGAUUUUGUUUAUUUUUUUAGCUCAUUUCCAGGGGUGGGAAUUUUUUUUUAAUAUGUGUCAUGAAUAAAGUUGUUUAUGAAA | -0.456 |
| GAUUCCCUCCACAUGCUGCACGCGCAUCUCGCCCCCAGGGGCACUGCCUGGAAGAUUCAGGAGCCUGGGCGGCCUUCGCUUACUCUCACC | 2.22 |
| AAGUCCUGUGCUACACAUCGUAUGUACCGAAUCGGGGAAAAGGAAAAGGGAAAAGGGAAAGUAUUAUGUUACGCCGUUCGGAUCUGCACU | 0.201 |
| AGGACGUGCAGAACUUCCUCUCUGACUGCACGAUUCAUGAUGGGGCCGCAGGUGUCCAUUUCAUCUACACUAGAGAGGGCAGGCAGAGUG | 0.623 |
| UCCCUGUCCAAGCUGAGCGCCCUCAACGAGAGCCUUGCUCAGGACAAGUUGGAUCUGAACUGCCUUGUCACCCAGGUACACUGUGCACCU | -0.218 |
| CCUCAAGUCCUGUGCUACACAUCGUAUGUACCGAAUCGGGCGGGGCGGGCGGAAAGUAUUAUGUUACGCCGUUCGGAUCUGCACUUCCAG | -0.0101 |
| AGUCCUGUGCUACACAUCGUAUGUACCGAAUCGGAAAAAGGUUUUUGGAAAAAAAGGAAAGUAUUAUGUUACGCCGUUCGGAUCUGCACU | -1.9 |
| CACAGAUAACACGCACCCACACAGACACAGAGGGAAGGGGUUGGGAUGGGGACAGGGUGCACAGCAGGGCGGGGUAGGACCCCAGCCCCU | 0.328 |
| UAACUUUAGAGGAGGAUCUGAUGGAUAUGGCAGUGGACGUGGAUUUGGGGAGGGCUAUAAUGGGUAUGGAGGAGGACCUGGAGGUGGCAA | -0.0473 |
| CACAGACAACACGCACCCACACAGACACAGAGGGAAGCGGUUGGGAUGGGGACAGGGUGCACAGCAGGGCGGGGUAGGACCCCAGCCCCU | -1.52 |
| UGGGAGGUGGAUUUUGUUUAUUUUUUUAGCUCAUUUCCAGGGGUGGGAAUUUUUUUUUAAUAUGUGUCAUGAAUAAAGUUGUUUUUGACA | -0.286 |

Block 4
Target: RNA binding protein fox-1 homolog 2, RRM domain, GST-SBP tag (RBFOX2, Homo sapiens, UniProt O43251-10, residues 100-194)
Technique: RNA Bind-n-Seq
Form: RNA
Matrix: in vitro
Concentration: 365 nM
Notes: natural RNA segment, single round, ends assumed
Reference: no-protein control
Direction: higher = stronger binding
Constant ends, left off below: GGGAGUUCUACAGUCCGACGAUC … UGGAAUUCUCGGGUGCCAA
Construct (chain): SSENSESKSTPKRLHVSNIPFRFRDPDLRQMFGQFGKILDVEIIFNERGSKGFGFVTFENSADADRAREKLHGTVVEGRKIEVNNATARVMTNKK
| Oligonucleotide | RBNS enrichment (R) |
| --- | --- |
| AUUGUUUCACACAAAAAUUAAAAGUUUCCUAAUUAAUGUUGUAUUCAUAUAUGUAGGCUCUGAAAUGUUGUGAUGCUUAUUGCUUCUGUAUUUCUUCUCUACUCCCUAGU | 0.403 |
| UUCAUAUUUUGUGAUAUAUAAGUAGUGAACACACAUGUUAUUUACUUCAAAAGACAGGAUUGACAAAUUCAGUCAAUACUAUUUUAGAGAUUCUGUUAGAUGAUAUGUCU | 0.359 |
| UUCAUUUACUCACCAUAUUUGAAUUGGCCUGAACAGAUGUAAAUCGGGAAGGAUGGGAAAAACUGCAGUCACCAACAAUGAUUAAUCAGCUGUUGCAGGCAGUGUCUUAA | 0.276 |
| GUCUACAGGAAAGAGAUGUUCUGCAAACAAGGGUGGAUGCCUGCAGUAGAGGUCAGAGCUGGUUACCUGCCUUAGUUACAAGUGUCGGUUAUGUUCUGGGUCUUUGUAAU | 1.06 |
| CCUGGGCAUCUGGGGACAGGAACACCUCUCAGGGUGGCCAAGAGGGGCUUCCUUGGGACCAGUGCAAGGAAGUUCUGCUGUCCCUGGGAAGUCUCAGAACCAGGAAGGAA | 0.325 |
| UCUGCAGAGAGGAAGAUAUGUUUUUGCUGCUUUAUAUAAAAAUGGUUUUUUUAAGUUAUUUUAAAAAUCUAGCUUCCCUUUUUGAUUAAGAUUGCCAUCUUGCUUUUAGG | 0.976 |
| GCAGGAAGGUAUAAACCGGUUAUGCACAUUGGAGCCCUUUGCUUUCACCUUACAUUCUGGAUGCAUUCAGAUCUCGGACGUCCUUAAGUGAAAUGAAUAUACAUGUCUAU | 0.64 |
| UUGGCCGCCAGUUCCGUUCUCCUCACGGGCCGAACGGAACAAGGGGUCCAGCUUGCGGGGGACCCUCCCCAGCCCAUUCCUGCUGUCAAACAAACAAAACCUUGCAAAGC | 0.204 |
| UCAACAAAAAUUUAUUGACUGAAAUGAAUUUUAAAUGCAUGUGUAUGAACUUGUUUUUCUUAAUCUUUAAGAUGUCAGUAUUCAUGUAAAUAAACAAUAGAUCCAGCUUU | 3.85 |
| UAAAAACUGCAAAACCAAUCUGUAUCAUGUACCAAACUGACUUAAAAUAAAUCUACAUGUUUAUUGAUUAAUAGUGUGUUACUGCGUUUUGCUUAUAAAAUUUAAUGCUU | 0.409 |
| AAGCCUGUCUGUCUCUUCACCAGUGGAGUGAGUGCAGCAGUUAGAAAGAGAAGCAAUAUUGUGCAACUGGUGCAGUGGUGAGUUAAUCAUAGUGUAUAACCUUGUGUUCA | 0.462 |
| CAUCAUAUUGAUGAGCGAACAAACAAGAACAUUUCCUCCCUCCCCUCCUUUGAAUUGAAAUGGCACAUUAAGACUUGUCACGGCUUCUCACUGGGACUGGAGACCUCGUU | 0.414 |

Block 5
Target: Prothrombin, mature alpha-thrombin (F2, Homo sapiens, UniProt P00734)
Technique: aptamer microarray, sandwich
Form: DNA with 2'F-ANA
Matrix: in vitro
Concentration: 200 nM
Notes: whole 15-mer aptamer, many near background
With: Cy3 exosite-II aptamer, 400 nM
Direction: higher = stronger binding
Oligonucleotide: GGTTGGTGTGGTTGG
| Modification | mean fluorescence intensity |
| --- | --- |
| 2'F-ANA at 2 8 10 12 14 | 88.5 a.u. |
| 2'F-ANA at 2 5 10 13 15 | 44.7 a.u. |
| 2'F-ANA at 3 4 6 7 8 11 12 13 | 721 a.u. |
| 2'F-ANA at 7 10 | 246 a.u. |
| 2'F-ANA at 1 2 3 4 6 7 9 14 15 | 56.4 a.u. |
| 2'F-ANA at 2 3 4 5 6 8 9 10 11 14 15 | 54.8 a.u. |
| 2'F-ANA at 3 4 7 9 12 | 1040 a.u. |
| 2'F-ANA at 1 3 6 9 10 11 12 14 15 | 81.5 a.u. |
| 2'F-ANA at 1 3 4 5 6 7 8 11 12 | 105 a.u. |
| 2'F-ANA at 1 2 7 8 9 10 11 13 14 | 49.3 a.u. |
| 2'F-ANA at 3 5 6 7 12 13 15 | 160 a.u. |
| 2'F-ANA at 2 4 5 8 10 13 14 15 | 51.9 a.u. |
| 2'F-ANA at 1 3 4 9 10 11 12 14 | 49.8 a.u. |
| 2'F-ANA at 6 8 | 609 a.u. |
| 2'F-ANA at 3 4 5 7 10 14 15 | 51.1 a.u. |
| 2'F-ANA at 2 4 7 8 9 10 11 14 | 64.3 a.u. |
| 2'F-ANA at 1 2 3 4 8 11 12 13 14 | 76.3 a.u. |
| 2'F-ANA at 3 7 8 12 15 | 1580 a.u. |
| 2'F-ANA at 3 4 7 8 11 12 13 14 | 435 a.u. |
| 2'F-ANA at 2 3 4 6 7 9 10 11 12 14 | 172 a.u. |
| 2'F-ANA at 2 3 9 11 | 848 a.u. |
| 2'F-ANA at 3 5 7 10 12 13 14 | 50.9 a.u. |
| 2'F-ANA at 4 6 7 8 10 11 14 15 | 57.1 a.u. |

Excerpt of the above (block 2):
| Substitution | binding fitness [natural log] |
| --- | --- |
| L38H | -1.2 |
| L52R | -1.3 |
| A49F | -1.33 |
| Q58H | -0.367 |
